Results pooled from the literature.
“And” joins repeats or separate records; there may be more than shown. ± marks the error that the study gave.

CC(C)OCCOCc1ccc(OCC(O)CN(N=O)C(C)C)cc1 (stereo not shown) has a fold change of 0.9 (duplex sequencing, measured: mutation frequency; NMRI mouse, bone marrow; oral, 9.95 mg/kg/day, 4 weeks; relative to: vehicle).
Cc1nn(-c2nc3c(F)cc(F)cc3s2)c(O)c1C(c1ccc(C(F)(F)F)cc1)c1c(C)nn(-c2nc3c(F)cc(F)cc3s2)c1O gave an MRT(0-inf) observed of 4.2 h and 8 h and 4.11 h (ICR mouse, plasma; oral, 50 mg/kg).
For O=C(Nc1cnccc1-c1ccc([18F])cc1)c1ccnc(NC(=O)C2CC2)c1, the SUV was 0.23 (ex vivo gamma counting; FVB/NJ mice, both sexes, cortex; intravenous, 120 min, mean, P-gp inhibitor pretreatment, with: tariquidar 15 mg/kg iv).
CC[C@H](C)[C@@H]1NC(=O)[C@H](Cc2ccc(O)cc2)NC(=O)CCCSC[C@@H](C(=O)N(CC(=O)N[C@@H](CC(C)C)C(=O)NCC(N)=O)Cc2ccc(F)cc2)NC(=O)[C@H](CC(N)=O)NC(=O)[C@H](CCC(N)=O)NC1=O: “serious adverse events” 0% (human; intranasal, 400 µg repeated doses).
C=C(NC(=O)c1csc(-c2nc3c(cc2O)-c2nc(cs2)C(=O)NC(C(C)O)C(=O)NC(=C(C)OC)c2nc(cs2)C(=O)NC2c4nc(cs4)C(=O)NC(COC(=O)c4c5c6c(cccc6n4O)COC(=O)C(OC4CC(C)(O)C(N(C)C)C(C)O4)C2OC5)c2nc-3cs2)n1)C(N)=O (stereo not shown) has a Tmax of 0.18 ± 0.16 h (cynomolgus monkey, both sexes, plasma; intravenous infusion, 1.5 mg/kg twice daily, 6 to 12 h, second dose).
With CCCCCCCOc1ccc(CC[C@](N)(CO)COP(=O)(O)O)cc1C(F)(F)F the Tmax was 12 h (healthy human males, plasma; oral, 0.125 mg, day 1, median).
For O=C(Nc1ccc(-c2nnc(-c3ccccn3)nn2)nc1)c1ccc(-c2cn(CCOCCOCCOCC[18F])nn2)cc1, “tumour to muscle ratio” read 1.5 (BALB/c nude mouse, LS174T xenograft; intravenous, 1 h, with: CC49-TCO 72 h before).
For [123I]c1ccc2nc(-c3ccc(-n4ccnn4)nc3)cn2c1, the tracer uptake was 0.618 %ID/g (male Wistar rat, liver; intravenous, 4 MBq, 1 h).
With CC(C(=O)O)n1nc(Cn2cc3cc(OCC[18F])c(Cl)cc3n2)c2ccccc2c1=O (racemic) the tissue uptake was 0.11 ± 0.07 %ID/g (Sprague-Dawley rat male, fat; 5 min).
For CCCC[C@H]1C(=O)N(C)[C@@H](CCCC)C(=O)N[C@@H](CCCCNC(=S)Nc2ccc(CN3CCN(CC(=O)O)CCN(CC(=O)O)CC3)cc2)C(=O)N[C@H](C(=O)NCC(N)=O)CSCC(=O)N[C@@H](Cc2ccc(O)cc2)C(=O)N(C)[C@@H](C)C(=O)N[C@@H](CC(N)=O)C(=O)N2CCC[C@H]2C(=O)N[C@@H](Cc2cnc[nH]2)C(=O)N[C@@H](CCC(=O)O)C(=O)N2C[C@H](O)C[C@H]2C(=O)N[C@@H](Cc2c[nH]c3ccccc23)C(=O)N[C@@H](CO)C(=O)N[C@@H](Cc2cn(CC(=O)O)c3ccccc23)C(=O)N1C [fluorine-18 labelled], the tumour uptake was 1.38 ± 0.38 %ID/g (SCaBER subcutaneous xenograft, NSG mouse, tumour; intravenous, 60 min).
COc1cccc(OC)c1-c1cc(C(=O)NC2(C(=O)O)C3CC4CC(C3)CC2C4)nn1-c1ccc(C(=O)N(C)CCCN(C)C(=O)[C@H](CCCCNC(=O)[C@H](CC(C)C)NC(=O)C2OC2C(=O)O)NC(=O)CN2CCN(CC(=O)[O-])CCN(CC(=O)[O-])CCN(CC(=O)[O-])CC2)cc1C(C)C.[177Lu+3] (mixture of isomers) gave a tumour-to-heart ratio of 27.2 (mouse, HT-29 xenograft; 168 h post injection, biodistribution; relative to: tumour over heart uptake).
With C=CC(=O)Nc1cc(Nc2nccc(-c3cn(C)c4ccccc34)n2)c(OC)cc1N(C)CCNC the recovery was 70.2% (storage stability; human dried blood spots; 72 h, on ice, low QC level).
The tissue uptake of O=C(CN1CCN(CC(=O)NCc2ncccc2O)CCN(CC(=O)NCc2ncccc2O)CCN(CC(=O)NCc2ncccc2O)CC1)NCc1ncccc1O.[177Lu+3] is reported as 0.135 ± 0.028 % injected dose/g (Sprague-Dawley rat, lung; intravenous (tail vein), dose not given, 2 h).
The absorbed dose of O=C(O)CCCOc1ccc([18F])cc1-c1cc(-c2ccccc2C(F)(F)F)n(-c2ccccc2)n1 is reported as 8.45 µGy/MBq (OLINDA/EXM from mouse data; human adults, spleen).
For COCC1CN(C2CCN(c3cc(OC)c(Nc4ncc(Br)c(Nc5ccc6c(c5P(C)(C)=O)OCCO6)n4)cc3C)CC2)C1, “grade ≥3 treatment-related AEs” read 16.7% (EGFR-mutant NSCLC patients; oral, 150 mg once daily).
CN1CCC[C@]1(C)/C=C/S(=O)(=O)NC(=O)Nc1c2c(cc3c1CCC3)CC=C2 — result for “Tmax at first steady-state dose”: 2.5 h (human, plasma; oral, 12.5 mg twice daily of parent drug, day 14, metabolite of dosed drug).
With O=C(Nc1cnccc1-c1ccc([18F])nc1)c1ccnc(NC(=O)C2CC2)c1 the SUV was 5.47 (mice, transgenic, GSK-3β, early-stage, urine; intravenous, dose not given, 120 min).
CCCC[C@H](NC(=O)CNC(=O)CNC(=O)[C@H](CCCCNC(=O)[C@H](CC(N)=O)NC(=O)C(C)c1ccc(CC(C)C)cc1)NC(=O)CN1CCN(CC(=O)O)CCN(CC(=O)O)CCN(CC(=O)O)CC1)C(=O)N[C@H]1CC(=O)NCCCC[C@@H](C(N)=O)NC(=O)[C@H](Cc2c[nH]c3ccccc23)NC(=O)[C@H](CCCNC(=N)N)NC(=O)[C@@H](Cc2ccccc2)NC(=O)[C@H](Cc2c[nH]cn2)NC1=O (stereo partly shown) [lutetium-177 labelled] gave a tumour-to-tissue ratio of 50.1 (C57 mice, tumour; 2 h; relative to: muscle).
Under “volume of distribution (Vz)”, N=C(N)NCCC[C@@H]1NC(=O)[C@H](CO)NC(=O)[C@@H](NC(=O)[C@H](CO)NC(=O)[C@H](CO)NC(=O)[C@H](Cc2c[nH]c3ccccc23)NC(=O)CNC(=O)[C@H](CO)NC(=O)[C@@H](N)Cc2c[nH]c3ccccc23)CSSC[C@@H](C(=O)NCC(=O)O)NC(=O)[C@H](CO)NC1=O is recorded as 337 L (patients, plasma; intravenous, 10 mg/kg, thrice weekly, median).
With CC(=O)N[C@H](CC(=O)O)C(=O)N[C@H](Cc1c[nH]c2ccccc12)C(=O)N[C@H](Cc1ccccc1)C(=O)N[C@H](CCCCN)C(=O)N[C@H](C)C(=O)N[C@H](Cc1ccccc1)C(=O)N[C@H](Cc1ccc(O)cc1)C(=O)N[C@H](CC(=O)O)C(=O)N[C@H](CCCCN)C(=O)N[C@@H](C(=O)N[C@H](C)C(=O)N[C@H](CCC(=O)O)C(=O)N[C@H](CCCCN)C(=O)N[C@H](Cc1ccccc1)C(=O)N[C@H](CCCCN)C(=O)N[C@H](CCC(=O)O)C(=O)N[C@H](C)C(=O)N[C@H](Cc1ccccc1)C(N)=O)C(C)C the plasma concentration was 68 ng/mL (human, plasma; oral, dose not given, 2 h post-dose, day 13).
C=Cc1c(C)c2cc3nc(c(CC(=O)O)c4[nH]c(cc5nc(cc1[nH]2)C(C)=C5CC)c(C)c4C(=O)O)[C@@H](CCC(=O)OCCOCCOCCOC)[C@@H]3C gave a compound loss of 21% (LC-MS; methanol-water 9:1; 4 h, pH 8.0).
For C=CC(=O)Nc1cc(Nc2nccc(-c3c[nH]c4ccccc34)n2)c(OC)cc1N(C)CCN(C)C, the recovery was 44.1% (storage stability; human plasma; 30 d, on ice, LLOQ level).
CC(=O)N([O-])CCCCCNC(=O)CCC(=O)N([O-])CCCCCNC(=O)CCC(=O)N([O-])CCCCCN.[89Zr+4] has a tracer uptake of 0.09 %ID/g (mouse, bone; 1 h).
With Cc1cc(C)n(CCN(CCN)CCCCCCNC(=O)[C@@H](N)Cc2c[nH]cn2)n1.[99Tc+].[C-]#[O+].[C-]#[O+].[C-]#[O+] the tumour-to-tissue ratio was 7 (BALB/c nude mice A549 xenograft; intravenous, 15 min; relative to: tumour over bone).
The tumour-to-tissue ratio of CC(C)C[C@H](NC(=O)[C@@H](CCCCNC(=O)[C@@H](Cc1ccccc1)NC(=O)CCCCCCCNC(=O)CN1CCN(CC(=O)O)CCN(CC(=O)O)CCN(CC(=O)O)CC1)NC(=O)[C@H](Cc1ccc(O)cc1)NC(=O)[C@H](CO)NC(=O)[C@H](Cc1c[nH]c2ccccc12)NC(=O)[C@H](Cc1c[nH]cn1)NC(=O)[C@@H]1CCC(=O)N1)C(=O)N[C@@H](CCCNC(=N)N)C(=O)N1CCC[C@H]1C(=O)NCC(N)=O [indium-111 labelled] is reported as 2.13 (male athymic nude mice, DU-145 prostate cancer xenograft, tumour; intravenous, 0.037 MBq, 4 h; relative to: tumour over muscle).
The Mn content of CCC1CNC(CC)CN(C(C(=O)[O-])c2ccc(C(=O)[O-])cc2)C(CC)CN(CC(=O)[O-])C(CC)CN1.[Mn+2] (stereo not shown) is reported as 0.23 ± 0.11 µg/g (ICP-MS; BALB/c mouse, blood; intravenous, 0.05 mmol/kg, 30 min, without anaesthesia).
With COc1ccc(Nc2nc(Nc3ccc(OCCOCC[18F])cc3)ncc2Br)cc1 the uptake ratio was 1.56 (ICR mice, S180 tumour; intravenous, 370 kBq, 120 min; relative to: tumour over muscle).
For NS(=O)(=O)c1c(F)c(F)c(SCCc2ccccc2)c(F)c1F, the pKa was 8.05 (sulfonamide group).
